Results gathered from unrelated publications.
A part holds a random share of what one study measured.

Sample 1
Target: Histone acetyltransferase KAT6A, winged helix 2, GST fusion (KAT6A, Homo sapiens, UniProt Q92794, residues 85-181)
Technique: protein binding microarray
Molecule type: double-stranded DNA, one strand shown
Medium: in vitro
Tested at: not given
Setting: 8-mer, flanks averaged, mean of 2 arrays, mostly near background
Baseline: not given
Reading: higher = stronger binding
Endpoint: E-score
Target sequence (chain): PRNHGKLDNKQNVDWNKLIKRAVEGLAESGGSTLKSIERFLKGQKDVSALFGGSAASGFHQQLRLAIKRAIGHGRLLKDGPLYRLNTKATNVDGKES
ATACATAA: -0.025
ACCTTCAC: -0.149
GCGCCAGA: 0.149
CAAAATGG: -0.0595
GAGAAGCA: 0.0741
AAGCAAGT: -0.0939
AGCCTTTC: 0.0974
AGGGTTCG: 0.0592
GCCTGACA: -0.0947
CCTGACGC: -0.0477
CCTCATGC: -0.0133
AGTGAGCA: 0.00541
ATTATCGG: -0.0103

Sample 2
Target: Sal-like protein 4, full length isoform A (SALL4, Homo sapiens, UniProt Q9UJQ4, residues 1-1053)
Chain of UniProt Q9UJQ4 (whole entry, looked up): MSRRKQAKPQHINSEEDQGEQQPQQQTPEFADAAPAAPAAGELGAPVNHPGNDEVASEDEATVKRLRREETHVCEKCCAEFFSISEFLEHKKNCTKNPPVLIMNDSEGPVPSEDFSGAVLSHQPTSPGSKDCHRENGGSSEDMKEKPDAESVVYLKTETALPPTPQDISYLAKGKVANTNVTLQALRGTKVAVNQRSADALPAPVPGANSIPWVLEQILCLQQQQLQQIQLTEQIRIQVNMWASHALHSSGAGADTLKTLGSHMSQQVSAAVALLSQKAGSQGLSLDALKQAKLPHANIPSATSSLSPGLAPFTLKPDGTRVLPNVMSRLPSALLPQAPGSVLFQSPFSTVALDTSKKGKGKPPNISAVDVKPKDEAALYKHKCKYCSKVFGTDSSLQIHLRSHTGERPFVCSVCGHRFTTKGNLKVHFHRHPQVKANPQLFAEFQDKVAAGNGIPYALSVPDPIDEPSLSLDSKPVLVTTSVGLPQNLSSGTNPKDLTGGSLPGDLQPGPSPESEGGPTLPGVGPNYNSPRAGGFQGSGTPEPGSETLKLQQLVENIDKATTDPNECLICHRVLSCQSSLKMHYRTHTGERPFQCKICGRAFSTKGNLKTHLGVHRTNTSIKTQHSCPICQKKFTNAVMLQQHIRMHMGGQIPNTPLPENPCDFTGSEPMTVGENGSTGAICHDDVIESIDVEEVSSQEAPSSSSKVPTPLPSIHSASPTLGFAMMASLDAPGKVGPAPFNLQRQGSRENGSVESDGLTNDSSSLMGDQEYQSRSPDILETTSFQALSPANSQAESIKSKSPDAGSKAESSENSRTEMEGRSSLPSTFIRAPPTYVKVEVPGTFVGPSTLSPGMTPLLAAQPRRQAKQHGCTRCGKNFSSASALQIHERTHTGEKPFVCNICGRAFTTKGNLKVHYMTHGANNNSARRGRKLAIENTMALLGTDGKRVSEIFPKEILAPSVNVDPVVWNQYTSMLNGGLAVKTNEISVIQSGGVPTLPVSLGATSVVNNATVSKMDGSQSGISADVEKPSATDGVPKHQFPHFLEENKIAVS
Technique: universal PBM
Molecule type: double-stranded DNA, one strand shown
Medium: in vitro
Tested at: 600 nM
Setting: 8-mer, flanks averaged, mean of replicates
Reading: higher = stronger binding
Endpoint: E-score
CTGGGTTA: -0.114
AAACAGTT: 0.215
AATTTAGT: 0.199
CTGCACAG: -0.21
ACTGCGAG: -0.171
ACGTTGAT: 0.187
GTTTTCAA: 0.232
CTTTCGCC: 0.0149
CGGACCAA: -0.096
CACCCGTG: -0.233
ATAAACTA: 0.349
CTGCGCGA: -0.128
TGATCGAA: 0.0145
CAGCCCTC: -0.264
ACGGTTGA: -0.0194
AATTTAGA: 0.204
GGAAATAC: 0.178
GTCCATCA: 0.0218
CAAAGAAC: 0.145
AGCATTCA: 0.0443
CACGCGCC: -0.274
TCTCGTCA: 0.0525
GGTCTGAA: -0.0282
ATCGAGGG: -0.126
ATCCATAA: 0.396

Sample 3
Target: Interferon regulatory factor 5, full length, phosphomimetic (IRF5, Homo sapiens, UniProt Q13568-2, residues 1-514, S451D/S453D/S456D/S462D)
Technique: protein-binding microarray
Molecule type: double-stranded DNA, one strand shown
Medium: in vitro
Tested at: 940 nM top
Setting: 60-bp whole probe
Together with: salmon DNA 0.4 mg/ml
Baseline: random background probes
Reading: higher = stronger binding
Endpoint: fitted relative affinity
Shared flanks, not repeated: GCCTAGCAC … GTCTTGATTCGCTTGACGCTGCTG
GCCGGTCTCCTACTGCTGACGTGCTAG: -0.149 z-score
ATAGAACTGGGGTTTCGATTAGTGCTA: 5.09 z-score
TTAGGGCTGCTTCTCCTTTAGTGCTAG: -0.295 z-score
TTAGATCTCAGTATCGAATAGTGCTAG: 1.88 z-score
TTAGGTTTCGGACTGGCTTAGTGCTAG: 7.85 z-score
CCTTTTTTTTTTTTTCTGATGTGCTAG: 1.54 z-score
TTAGATCTCAGTTTCGATGAGTGCTAG: 6.51 z-score
TTAGGTTTGGACACTGGGTTAGTGCTA: -0.0347 z-score
TCATGGTCCTCTCTCTAACTGTGCTAG: 0.174 z-score
TTAGATTTCAGTTTCGACTAGTGCTAG: 5.94 z-score
TTAGTTTTCGGACTGGGTTAGTGCTAG: 1.84 z-score
TTAGAGTTCAGTTTCGATTAGTGCTAG: 8.78 z-score
GACGATATCAGTATCAAGACGTGCTAG: 0.118 z-score
GACGGACTGCTTCTCCTGAAGTGCTAG: -0.35 z-score
GACGGTTTCCACTTTCGGGACGTGCTA: 2.07 z-score
GACGGTTTCGGGCCTGGGGACGTGCTA: 6.4 z-score

Sample 4
Target: Ras GTPase-activating protein-binding protein 1, RRM domain (G3BP1, Homo sapiens, UniProt Q13283)
Chain of UniProt Q13283 (whole entry, looked up): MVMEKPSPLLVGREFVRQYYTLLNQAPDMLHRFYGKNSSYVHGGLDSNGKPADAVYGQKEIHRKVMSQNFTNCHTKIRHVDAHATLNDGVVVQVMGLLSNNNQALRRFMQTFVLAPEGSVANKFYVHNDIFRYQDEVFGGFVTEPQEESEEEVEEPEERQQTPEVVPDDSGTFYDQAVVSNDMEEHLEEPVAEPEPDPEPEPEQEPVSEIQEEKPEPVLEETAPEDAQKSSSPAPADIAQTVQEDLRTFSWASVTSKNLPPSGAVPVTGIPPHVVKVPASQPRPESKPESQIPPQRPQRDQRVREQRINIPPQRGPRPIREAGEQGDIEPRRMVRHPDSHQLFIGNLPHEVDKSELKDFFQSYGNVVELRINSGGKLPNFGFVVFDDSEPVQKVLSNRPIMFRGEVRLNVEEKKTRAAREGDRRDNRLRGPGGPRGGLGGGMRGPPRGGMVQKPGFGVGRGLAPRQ
Technique: RNA Bind-n-Seq
Molecule type: RNA
Medium: in vitro
Tested at: 1 µM
Setting: whole 134-nt RNA, ends assumed
Together with: 150 mM KCl
Baseline: input library
Reading: higher = stronger binding
Endpoint: log2 enrichment
Shared flanks, not repeated: GGGAGUUCUACAGUCCGACGAUC … UGGAAUUCUCGGGUGUCAAGG
CCCAUUCCAAGAUUUGCUGUUGGCAUUGUAAUAGGAAGAAAUGGAGAGAUGAUCAAAAAAAUACAAAAUGAUGCUGGUGUUCGCAUUCAG: -0.191
AAGUCCUGUGCUACACAUCGUAUGUACCGAAUCGGUUUUGGUUUUGGGGUUUUGGGAAAGUAUUAUGUUACGCCGUUCGGAUCUGCACUU: -0.265
UGGGAGGUGGAUUUUGUUUAUUUUUUUAGCUCAUUUCCAGGGGUGGUAAUUUUUUUUUAAUAUGUGUCAUGAAUAAAGUUGUUUUUGAAA: 1.34
AAGUCCUGUGCUACACAUCGUAUGUACCGAAUCGGGAAAAAGGGAAAAAGGGUGGGAAAGUAUUAUGUUACGCCGUUCGGAUCUGCACUU: 0.885
UUUUUUGUAGUAGGGAGAUCCUUGAUCAUCAGGAUGGUAAUGUAGAAGAUGAUGGGCUUACAGGACUCCUAAGGCUUGCAACAAGUGUUG: -0.0497
CAAGUCCUGUGCUACACAUCGUAUGUACCGAAUCGGGAAAAAGGGUUUGGGUGGGAAAGUAUUAUGUUACGCCGUUCGGAUCUGCACUUC: 0.874
GUCCUGUGCUACACAUCGUAUGUACCGAAUCGGCCCCCCGGCCCCCCGGGCCCCCCGGAAAGUAUUAUGUUACGCCGUUCGGAUCUGCAC: -0.422
UCCUGUGCUACACAUCGUAUGUACCGAAUCGGGUUUUUUGGGGUUUUUUGGUUUUUUGGGAAAGUAUUAUGUUACGCCGUUCGGAUCUGC: -0.084
UAACUUUAGAGGAGGAUCUGAUGGAUAUGGCAGUGGACGUGGAUUUGGGGAUGGCUAUAAUGGGUAUGGAAGAGGACCUGGAGGUGGCAA: -0.387
ACAGAGGGUUUGGUGGACGUUAUUCUCUAUCAUCAACCCGAUGACAAAAAGAAGAAUCGGGGGUUCUGCUUCCUUGAAUAUGAGGAUCAC: -0.293

Sample 5
Organism: Saccharomyces cerevisiae
Observed: peptide binding
Technique: yeast competitive growth sequencing
Molecule type: peptide
Strain: cyclin E2-Cln2 fusion
Tested at: concentration not given
Setting: combined libraries
Reading: direction not given
Endpoint: binding score
GSPLKALFTSTGL: -0.0107
GSPLKKLFTATGL: 0.5
GSPLKKLFTSTGA: 0.0721

Sample 6
Target: RING finger protein unkempt homolog, zinc fingers 1-6, GST-SBP tag (UNK, Homo sapiens, UniProt Q9C0B0, residues 30-357)
Technique: RNA Bind-n-Seq
Molecule type: RNA
Medium: in vitro
Tested at: not given
Setting: RNA with constant flanks, human-mouse chimeric sites, ends assumed
Baseline: input RNA pool
Reading: higher = stronger binding
Endpoint: bound/input enrichment
Shared flanks, not repeated: GGGAGUUCUACAGUCCGACGAUC … CAACAGAGGAUUGAGCAUCA
Construct (chain): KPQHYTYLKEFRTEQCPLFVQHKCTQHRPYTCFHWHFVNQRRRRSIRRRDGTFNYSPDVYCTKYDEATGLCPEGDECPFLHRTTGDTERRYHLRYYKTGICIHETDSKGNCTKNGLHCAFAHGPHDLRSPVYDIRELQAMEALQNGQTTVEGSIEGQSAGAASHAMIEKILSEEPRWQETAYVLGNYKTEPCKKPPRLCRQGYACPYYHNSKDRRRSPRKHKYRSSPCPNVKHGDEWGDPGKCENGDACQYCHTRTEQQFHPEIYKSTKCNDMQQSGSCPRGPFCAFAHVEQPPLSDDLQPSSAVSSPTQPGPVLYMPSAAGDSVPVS
CGCUUGGAUGAGGCGGGUGUCACAGAUGAAGUGCUGGAUUCUGCCAUGCAAGCCUUCCUUCUGGAGGUCAUUGUUAAGCAUGGGGAGCCGGCACCUUAUUUAUGUAACAAAGAUCCGUUU: 0.0663 ratio
GGUGGGGUGGUCAUUGCGCCAAUUGAGGCUGAUUUUCAUGAGUCGCCUUCAAAACUCUCGUGUAGGGUUGACAAUGUGGGGGGGUGGGGGAUCCAGCUAUUUUUUUUAUUUUCAAGUCCA: 6.26 ratio
UUUGUUUUUAUGCUAAGCACACGUGCUGGUGGUCUGGGCAUCAAUCUUGCAACUGCUGAUGUAGUAAUUUUAUAUGACUCAGAUUGGAAUCCGCAAGUUGAUCUUCAGGCUAUGGACCGU: 0.471 ratio
GCAGGAUCUUCUAAGUACCAGUGGGACAUUAUGAAAUCCCUUGGGCUCUCUGAUGACGAGAUAGUAAAAUUUUCUGAAGCAGAGCACUGGCUUGAUUAUUUCCCACCACUGGCCGUUCAG: 0.368 ratio
CACGUGUCUGCAGUACUUGAUGUGGACUACUCUCCCACUGGGAAGGAAUUUGUGUCUGCCAGCUUUGAUAAGUCUAUUAGAAUCUUUCCUGUGGACAAAAGUCGAAGCAGGGAAGUGUAU: 0.39 ratio
CAGCUGCGAGGCCGCGGUUUCCCCCUGGGCCUCCCCAGCAGCAGCCAUGGGCAUCAAAUUUUUAGAAGUUAUCAAACCAUUCUGUGCAGUUCUACCAGAAAUUCAGAAGCCUGAAAGGAA: 0.548 ratio
CUCAUGGCUGCAGAAACAGGAAGUGGAAAAACUGGUGCAUUUAGUAUUCCCGUUAUCCAGAUAGUGUAUGAAACUCUGAAAGACCAACAGGAAGGAAAAAAAGGAAAAACAACUAUUAAA: 1.23 ratio

For quick reference, copied from above (sample 6):
GGUGGGGUGGUCAUUGCGCCAAUUGAGGCUGAUUUUCAUGAGUCGCCUUCAAAACUCUCGUGUAGGGUUGACAAUGUGGGGGGGUGGGGGAUCCAGCUAUUUUUUUUAUUUUCAAGUCCA: 6.26 ratio
CGCUUGGAUGAGGCGGGUGUCACAGAUGAAGUGCUGGAUUCUGCCAUGCAAGCCUUCCUUCUGGAGGUCAUUGUUAAGCAUGGGGAGCCGGCACCUUAUUUAUGUAACAAAGAUCCGUUU: 0.0663 ratio
UUUGUUUUUAUGCUAAGCACACGUGCUGGUGGUCUGGGCAUCAAUCUUGCAACUGCUGAUGUAGUAAUUUUAUAUGACUCAGAUUGGAAUCCGCAAGUUGAUCUUCAGGCUAUGGACCGU: 0.471 ratio
CAGCUGCGAGGCCGCGGUUUCCCCCUGGGCCUCCCCAGCAGCAGCCAUGGGCAUCAAAUUUUUAGAAGUUAUCAAACCAUUCUGUGCAGUUCUACCAGAAAUUCAGAAGCCUGAAAGGAA: 0.548 ratio
GCAGGAUCUUCUAAGUACCAGUGGGACAUUAUGAAAUCCCUUGGGCUCUCUGAUGACGAGAUAGUAAAAUUUUCUGAAGCAGAGCACUGGCUUGAUUAUUUCCCACCACUGGCCGUUCAG: 0.368 ratio
CACGUGUCUGCAGUACUUGAUGUGGACUACUCUCCCACUGGGAAGGAAUUUGUGUCUGCCAGCUUUGAUAAGUCUAUUAGAAUCUUUCCUGUGGACAAAAGUCGAAGCAGGGAAGUGUAU: 0.39 ratio
CUCAUGGCUGCAGAAACAGGAAGUGGAAAAACUGGUGCAUUUAGUAUUCCCGUUAUCCAGAUAGUGUAUGAAACUCUGAAAGACCAACAGGAAGGAAAAAAAGGAAAAACAACUAUUAAA: 1.23 ratio
